Values quoted from earlier work as cited in several papers.
Each line is one published result; not all experiments were run side by side. ± gives the spread as reported. Values after ≈ are worked out from the molar mass of the structure shown.

| Compound | assay | system | setting | scale | measurement | result |
| --- | --- | --- | --- | --- | --- | --- |
| CN(C)CCc1c[nH]c2ccc(C[C@H]3COC(=O)N3)cc12 | – | – | – | – | logD | -1.47 |
| Nc1nc2c(ncn2COCCO)c(=O)[nH]1 | – | rat | oral | – | oral bioavailability | 25% |
| NC(=O)N1c2ccccc2C=Cc2ccccc21 | – | mouse | i.p., corneal kindling model | – | protective index | 7.7 |
| CCCS(=O)(=O)Nc1ccc(F)c(C(=O)c2c[nH]c3ncc(-c4ccc(Cl)cc4)cc23)c1F | – | mouse | intravenous, single dose | – | Vd | 0.263 L/kg |
| CCCN(CCC)CCc1cccc2c1CC(=O)N2 | – | dog | intravenous | – | elimination half-life | ~4 h |
| CN(C)C(=O)c1cc2cnc(Nc3ccc(N4CCNCC4)cn3)nc2n1C1CCCC1 | – | human | 600 mg | – | steady-state Cmax | 606 to 6170 ng/mL |
| O=C(c1cccnc1-c1ccncc1)N1CCC(O)(Cc2ccccc2)CC1 | – | faeces | oral, 300 mg [14C]-labelled, single, time not given | – | dose recovered | 2.7% |
| CC1(C)CCC(CN2CCN(c3ccc(C(=O)NS(=O)(=O)c4ccc(NCC5CCOCC5)c([N+](=O)[O-])c4)c(Oc4cnc5[nH]ccc5c4)c3)CC2)=C(c2ccc(Cl)cc2)C1 | – | Japanese patients, plasma | 400 mg, phase 1/2 study | – | steady-state plasma concentration | 0.808 ± 0.593 µg/mL |
| CCN(CC)CCN(CCNCCc1ccc(O)c2[nH]c(=O)sc12)C(=O)CCOCCc1cccc2ccccc12 | – | human, plasma | inhaled | – | Tlast | 48 h |
| N=C(N)c1ncn([C@@H]2O[C@H](CO)[C@@H](O)[C@H]2O)n1 | – | rat | 30 mg/kg | – | oral bioavailability | 9.91% |
| CN(C)C(=N)N=C(N)N | – | healthy human | – | – | non-renal clearance | 162 mL/min |
| COc1cc2c(Oc3ccc4[nH]c(C)cc4c3F)ccnc2cc1OCC1(N)CC1 | – | human | 16 mg/day, two cycles | – | AUC(0-42 days) | 2240 ± 814 ng·h/mL |
| Cc1cc(-c2nccc3c2ccn3CC(=O)Nc2ccc(-c3cnccn3)cn2)ccn1 | – | rat | 20 mg/kg/day, 1 month, repeat dosing | – | Cmax, total | 13.6 µM |
| N#C[C@@]1(c2ccc3c(N)ncnn23)O[C@H](CO)[C@@H](O)[C@H]1O | – | dog, plasma | intravenous, 2 mg/kg, 4 h, solution | – | plasma concentration | 574 ng/mL |
| CO[C@H]1/C=C/O[C@@]2(C)Oc3c(C)c(O)c4c(O)c(c(/C=N/N5CCN(C)CC5)c(O)c4c3C2=O)NC(=O)/C(C)=C\C=C\[C@H](C)[C@H](O)[C@@H](C)[C@@H](O)[C@@H](C)[C@H](OC(C)=O)[C@@H]1C | perpetrator | human | dose not given, with: simvastatin as victim drug | – | victim drug AUC decrease | 87% |
| Cn1ncnc1[C@H]1c2n[nH]c(=O)c3cc(F)cc(c23)N[C@@H]1c1ccc(F)cc1 | – | human | – | – | absorption lag time | 0.243 h |
| O=C(c1cccnc1-c1ccncc1)N1CCC(O)(Cc2ccccc2)CC1 | – | children with Dravet or Lennox-Gastaut syndrome | dose not given | – | withdrawal due to TEAEs | 5.6% |
| CCn1cc(-c2cc(Cn3ccnc3)cc3c2CCN([C@H](c2cc(OC)ccn2)C2CC2)C3=O)c(C(F)(F)F)n1 | – | CD-1 mouse | intravenous, 3 mg/kg | – | clearance | 20 mL/min/kg |
| CCCCCC(CCC)C(=O)O (stereo not drawn) | scoliosis or lordosis | zebrafish embryo | nominal concentration | – | EC10 | 41 µM |
| CC(C)c1nc(CN(C)C(=O)N[C@H](C(=O)N[C@@H](Cc2ccccc2)C[C@H](O)[C@H](Cc2ccccc2)NC(=O)OCc2cncs2)C(C)C)cs1 | – | human | concentration not given, maximum at approved doses | – | CSF concentration | 2.63 to 32 nM |
| [H]/N=C(/N)N[C@H]1[C@H](O)[C@@H](O)[C@H](O[C@@H]2O[C@@H](C)[C@](O)(C=O)[C@H]2O[C@@H]2O[C@@H](CO)[C@H](O)[C@@H](O)[C@@H]2NC)[C@@H](N/C(N)=N\[H])[C@@H]1O | – | human | median, range | – | renal clearance | 0.47 mL/min/kg |

| Compound | assay | system | setting | scale | measurement | result |
| --- | --- | --- | --- | --- | --- | --- |
| Cc1cc(Nc2ccc(C(F)(F)F)c(F)c2)n2ncnc2n1 | – | PBS | pH 6.5 | – | kinetic solubility | 10 µM (≈ 3.11 µg/mL) |
| Nc1ccn([C@H]2CO[C@@H](CO)S2)c(=O)n1 | – | rat | – | – | oral bioavailability | 68% |
| CN[C@@H](C)C(=O)N[C@H]1CN(S(=O)(=O)c2cccc(S(=O)(=O)N3CC[C@H]4CC[C@@H](C(=O)NC(c5ccccc5)c5ccccc5)N4C(=O)[C@@H](NC(=O)[C@H](C)NC)C3)c2)CC[C@H]2CC[C@@H](C(=O)NC(c3ccccc3)c3ccccc3)N2C1=O | – | normal saline | up to 0.3 mg/mL | – | stability at room temperature | 8 h |
| Nc1ccn([C@@H]2CS[C@H](CO)O2)c(=O)n1 | – | woodchuck | 20 mg/kg | – | oral bioavailability | 17 to 53% |
| Cn1c(=O)oc2ccc(-c3ccc(C[C@@H](C#N)NC(=O)[C@@H]4CNCCCO4)cc3)cc21 | – | human | 10 mg, phase II | reference: placebo | skin adverse event incidence | no effect |
| CCCCC(C)C(=O)O (stereo not drawn) | craniofacial deformation | zebrafish embryo | nominal concentration | – | EC10 | > 1000 µM |
| COCCc1ccc(OCC(O)CNC(C)C)cc1 (stereo not drawn) | – | rat | – | – | plasma clearance | 112 mL/min/kg |
| CO[C@@H](C)Cn1c(=O)n(C)c2cnc3ccc(-c4cncc(C(C)(C)O)c4)cc3c21 | – | human | 20 mg and 325 mg, day 1, mean | – | apparent clearance CL/F | 75.6 L/h |
| N[C@@H](Cc1c[nH]c2ccccc12)C(=O)O | – | – | – | reference: NHE | redox potential | 1.07 V |
| CC(C)n1c(=O)n(C)c2cnc3cc(F)c(-c4ccc(OCCCN5CCCCC5)nc4)cc3c21 | – | rat, brain over plasma | – | – | Kp,uu | 0.17 |
| O=C(O)CN1CCN(CC(=O)O)CCN(CC(=O)O)CCN(CC(=O)O)CC1 | pH-potentiometry, item: logK2H | 0.15 M NaClO4 | 25 °C | – | protonation constant (log) | 9.5 |
| CO[C@H]1C[C@@H]2CC[C@@H](C)[C@@](O)(O2)C(=O)C(=O)N2CCCC[C@H]2C(=O)O[C@H]([C@H](C)C[C@@H]2CC[C@@H](OCCO)[C@H](OC)C2)CC(=O)[C@H](C)/C=C(\C)[C@@H](O)[C@@H](OC)C(=O)[C@H](C)C[C@H](C)/C=C/C=C/C=C/1C | – | plasma | concentration not given, population PK two-compartment | – | apparent central volume (V1/F) | 191 L |
| CCCCCCCCCCCCCCCC(=O)N[C@@H](CCC(=O)NCCCC[C@H](NC(=O)[C@H](C)NC(=O)[C@H](C)NC(=O)[C@H](CCC(N)=O)NC(=O)CNC(=O)[C@H](CCC(=O)O)NC(=O)[C@H](CC(C)C)NC(=O)[C@H](Cc1ccc(O)cc1)NC(=O)[C@H](CO)NC(=O)[C@H](CO)NC(=O)[C@@H](NC(=O)[C@H](CC(=O)O)NC(=O)[C@H](CO)NC(=O)[C@@H](NC(=O)[C@H](Cc1ccccc1)NC(=O)[C@@H](NC(=O)CNC(=O)[C@H](CCC(=O)O)NC(=O)[C@H](C)NC(=O)[C@@H](N)Cc1cnc[nH]1)[C@@H](C)O)[C@@H](C)O)C(C)C)C(=O)N[C@@H](CCC(=O)O)C(=O)N[C@@H](Cc1ccccc1)C(=O)N[C@H](C(=O)N[C@@H](C)C(=O)N[C@@H](Cc1c[nH]c2ccccc12)C(=O)N[C@@H](CC(C)C)C(=O)N[C@H](C(=O)N[C@@H](CCCNC(=N)N)C(=O)NCC(=O)N[C@@H](CCCNC(=N)N)C(=O)NCC(=O)O)C(C)C)[C@@H](C)CC)C(=O)O | – | overweight or obese adults | 3.0 mg | – | acute pancreatitis incidence | 0.3% |
| Oc1ccc(C(c2ccc(O)cc2)(C(F)(F)F)C(F)(F)F)cc1 | item: free (unconjugated) compound | B6C3F1/N mouse, female | oral gavage, 34 mg/kg | – | Cmax | 0.313 µM |
| C=CC(=O)NC1CCN(c2ncc3ncnc(Nc4ccc(Oc5ccc6c(c5)ncn6C)c(C)c4)c3n2)CC1 | – | in vitro | – | – | glucuronidation contribution to metabolism | 13 to 25% |
| C#C[C@]1(OC(C)=O)CC[C@H]2[C@@H]3CCC4=CC(=NO)CC[C@@H]4[C@H]3CC[C@@]21CC (mixture of isomers) | – | human | 0.25 mg single dose, fasted, reference formulation | – | AUC(0-3 h) | 0.0637 ng·h/mL |
| CC1(C)CCC2(CC1)N[C@@H](C(=O)N[C@@H]1CC[C@@H](C(N)=O)OC1)[C@H](c1ccnc(Cl)c1F)[C@]21C(=O)Nc2cc(Cl)ccc21 | – | patients with solid tumours or lymphomas | dose not given, grade ≥3, first-in-human trials | – | patients with related neutropenia | 12% |
| Nc1ccn([C@@H]2O[C@H](CO)[C@@H](O)C2(F)F)c(=O)n1 | – | pancreatic cancer patients | dose not given | – | dose reductions due to Thrombocytopenia | 20% |
| CC(C)C[C@@H](NC(=O)[C@H](C)NC(=O)CNC(=O)[C@@H](NC=O)C(C)C)C(=O)N[C@@H](C)C(=O)N[C@@H](C(=O)N[C@H](C(=O)N[C@@H](C(=O)N[C@@H](Cc1c[nH]c2ccccc12)C(=O)N[C@H](CC(C)C)C(=O)N[C@@H](Cc1c[nH]c2ccccc12)C(=O)N[C@H](CC(C)C)C(=O)N[C@@H](Cc1c[nH]c2ccccc12)C(=O)N[C@H](CC(C)C)C(=O)N[C@@H](Cc1c[nH]c2ccccc12)C(=O)NCCO)C(C)C)C(C)C)C(C)C | hemolysis | rabbit red blood cells | – | – | HC10 | 160 nM |
| C=CC(=O)N1CCC([C@@H]2CCNc3c(C(N)=O)c(-c4ccc(Oc5ccccc5)cc4)nn32)CC1 | – | human patients | oral, 80 mg once daily, day 8 | – | AUC(0-8h) | 595 ± 338 ng·h/mL |
| c1ccc2c(c1)ccc1cc3c(ccc4ccccc43)cc12 | slow stirring | – | – | – | logKow | 7.22 |

Some of these lines once more:
| Compound | assay | system | setting | scale | measurement | result |
| --- | --- | --- | --- | --- | --- | --- |
| O=C(O)CN1CCN(CC(=O)O)CCN(CC(=O)O)CCN(CC(=O)O)CC1 | pH-potentiometry, item: logK2H | 0.15 M NaClO4 | 25 °C | – | protonation constant (log) | 9.5 |
| CO[C@H]1C[C@@H]2CC[C@@H](C)[C@@](O)(O2)C(=O)C(=O)N2CCCC[C@H]2C(=O)O[C@H]([C@H](C)C[C@@H]2CC[C@@H](OCCO)[C@H](OC)C2)CC(=O)[C@H](C)/C=C(\C)[C@@H](O)[C@@H](OC)C(=O)[C@H](C)C[C@H](C)/C=C/C=C/C=C/1C | – | plasma | concentration not given, population PK two-compartment | – | apparent central volume (V1/F) | 191 L |
| CCCCCCCCCCCCCCCC(=O)N[C@@H](CCC(=O)NCCCC[C@H](NC(=O)[C@H](C)NC(=O)[C@H](C)NC(=O)[C@H](CCC(N)=O)NC(=O)CNC(=O)[C@H](CCC(=O)O)NC(=O)[C@H](CC(C)C)NC(=O)[C@H](Cc1ccc(O)cc1)NC(=O)[C@H](CO)NC(=O)[C@H](CO)NC(=O)[C@@H](NC(=O)[C@H](CC(=O)O)NC(=O)[C@H](CO)NC(=O)[C@@H](NC(=O)[C@H](Cc1ccccc1)NC(=O)[C@@H](NC(=O)CNC(=O)[C@H](CCC(=O)O)NC(=O)[C@H](C)NC(=O)[C@@H](N)Cc1cnc[nH]1)[C@@H](C)O)[C@@H](C)O)C(C)C)C(=O)N[C@@H](CCC(=O)O)C(=O)N[C@@H](Cc1ccccc1)C(=O)N[C@H](C(=O)N[C@@H](C)C(=O)N[C@@H](Cc1c[nH]c2ccccc12)C(=O)N[C@@H](CC(C)C)C(=O)N[C@H](C(=O)N[C@@H](CCCNC(=N)N)C(=O)NCC(=O)N[C@@H](CCCNC(=N)N)C(=O)NCC(=O)O)C(C)C)[C@@H](C)CC)C(=O)O | – | overweight or obese adults | 3.0 mg | – | acute pancreatitis incidence | 0.3% |
| Oc1ccc(C(c2ccc(O)cc2)(C(F)(F)F)C(F)(F)F)cc1 | item: free (unconjugated) compound | B6C3F1/N mouse, female | oral gavage, 34 mg/kg | – | Cmax | 0.313 µM |
| C=CC(=O)NC1CCN(c2ncc3ncnc(Nc4ccc(Oc5ccc6c(c5)ncn6C)c(C)c4)c3n2)CC1 | – | in vitro | – | – | glucuronidation contribution to metabolism | 13 to 25% |
| C#C[C@]1(OC(C)=O)CC[C@H]2[C@@H]3CCC4=CC(=NO)CC[C@@H]4[C@H]3CC[C@@]21CC (mixture of isomers) | – | human | 0.25 mg single dose, fasted, reference formulation | – | AUC(0-3 h) | 0.0637 ng·h/mL |
